Results gathered from unrelated publications.
Parts stem from different laboratories: compare values within a part only.

Block 1
Target: Interferon regulatory factor 7, full length, phosphomimetic (IRF7, Homo sapiens, UniProt Q92985, residues 1-503, S471D/S472D/S475D/S476D/S477D/S483D/S484D/S487D)
Sequence of UniProt Q92985 (whole entry, unmodified, looked up): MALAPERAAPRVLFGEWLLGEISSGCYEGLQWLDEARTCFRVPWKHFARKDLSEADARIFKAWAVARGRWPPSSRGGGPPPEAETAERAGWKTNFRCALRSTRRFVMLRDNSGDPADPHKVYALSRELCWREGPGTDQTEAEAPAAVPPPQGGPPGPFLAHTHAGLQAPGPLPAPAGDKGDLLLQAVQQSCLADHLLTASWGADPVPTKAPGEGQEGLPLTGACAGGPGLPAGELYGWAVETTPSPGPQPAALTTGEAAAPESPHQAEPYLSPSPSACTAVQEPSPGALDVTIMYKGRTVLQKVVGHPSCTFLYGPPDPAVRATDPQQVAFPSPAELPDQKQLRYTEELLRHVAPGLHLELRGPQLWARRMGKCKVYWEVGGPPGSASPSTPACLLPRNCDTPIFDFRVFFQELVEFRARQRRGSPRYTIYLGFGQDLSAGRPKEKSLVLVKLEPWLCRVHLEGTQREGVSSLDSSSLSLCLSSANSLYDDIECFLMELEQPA
Method: protein-binding microarray
Molecule type: double-stranded DNA, one strand shown
Medium: in vitro
Concentration: 2200 nM top
Notes: 60-bp whole probe
With: salmon DNA 0.4 mg/ml
Baseline: random background probes
Reading: higher = stronger binding
Constant ends, left off below: GCCTAGCAC … GTCTTGATTCGCTTGACGCTGCTG
For `TTAGACTTCAGTCTCGATTAGTGCTAG`, “fitted relative affinity” read 0.126 z-score.
`TCACTTTTCATGCTCTTACTGTGCTAG`: “fitted relative affinity” 3.19 z-score.
`GACGAACTGAGTCTTGAGACGTGCTAG`: “fitted relative affinity” -0.000679 z-score.
Under “fitted relative affinity”, `TTGGGTATCCTTTTCCTTTAGTGCTAG` is recorded as 1.83 z-score.
Under “fitted relative affinity”, `CTGACTTTGGAGATGACTCAGTGCTAG` is recorded as 0.133 z-score.
`TTAGGTCTCCTTCTCTTTTAGTGCTAG`: “fitted relative affinity” 1.2 z-score.
For `GACGAACTGAGACTCGAGACGTGCTAG`, “fitted relative affinity” read 0.162 z-score.
For `ATCATTCTCACTGCAGCCTTGTGCTAG`, “fitted relative affinity” read 1.56 z-score.
For `TTAGGTATCAACTATCGGTTAGTGCTA`, “fitted relative affinity” read 0.247 z-score.
Under “fitted relative affinity”, `TCATTCCTAATTCTCTTACTGTGCTAG` is recorded as 1.92 z-score.
`GAGAAAATGATTTTTTTCATGTGCTAG`: “fitted relative affinity” -0.0599 z-score.
`TTAGGTCTCCTTAGCCTTTAGTGCTAG`: “fitted relative affinity” 0.0083 z-score.
For `TTAGGACTTGGACTGGGTTAGTGCTAG`, “fitted relative affinity” read -0.496 z-score.
`CCGAAAATGCCCTTTTGGTGAGTGCTA` — result for “fitted relative affinity”: 1.76 z-score.
For `TTAGGACTGCTTATCCGTTAGTGCTAG`, “fitted relative affinity” read 0.346 z-score.
`GACGAACGGAGTCTCGAGACGTGCTAG` — result for “fitted relative affinity”: -0.137 z-score.
`GACGAGTTCGGGTTTCGAGACGTGCTA` — result for “fitted relative affinity”: 1.89 z-score.
Under “fitted relative affinity”, `CGTATCTTCATTGTCATGTAGTGCTAG` is recorded as 1.86 z-score.
`CTTTCCTTTGCTTTCTCCCAGTGCTAG`: “fitted relative affinity” 3.56 z-score.
`AAACCTCACAGTTTGTAAATGTGCTAG`: “fitted relative affinity” 0.178 z-score.
`GGGCTTTCCCAGCCTGGGGCTGTGCTA`: “fitted relative affinity” -1.35 z-score.
`TTAGGACTGCATATCCTTTAGTGCTAG`: “fitted relative affinity” -0.0313 z-score.
`GACGGTTTCCTTCTCATGACGTGCTAG` — result for “fitted relative affinity”: 2.75 z-score.
Under “fitted relative affinity”, `GACGGTATTCTTATCCTGACGTGCTAG` is recorded as 0.499 z-score.
`GACGGTCTTGGACTGGGGACGTGCTAG` — result for “fitted relative affinity”: -0.739 z-score.

Block 2
Target: RNA binding protein fox-1 homolog 2, RRM domain, GST-SBP tag (RBFOX2, Homo sapiens, UniProt O43251-10, residues 100-194)
Method: RNA Bind-n-Seq
Molecule type: RNA
Medium: in vitro
Concentration: 365 nM
Notes: natural RNA segment, single round, ends assumed
Baseline: no-protein control
Reading: higher = stronger binding
Constant ends, left off below: GGGAGUUCUACAGUCCGACGAUC … UGGAAUUCUCGGGUGCCAA
Target sequence (chain): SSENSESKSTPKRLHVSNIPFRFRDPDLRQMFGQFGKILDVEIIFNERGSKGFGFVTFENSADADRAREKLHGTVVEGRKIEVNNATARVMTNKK
For `ACAGCCCCUGCCCUGCCUCUGAGGGCCCACCAGCCUGUGCUGCAUACCCACCGCCCAGCUUCUCCCUGAGGGCCCACCAGCCUGUGCUGCAUACCCACCGCCCAGCUUCU`, “RBNS enrichment (R)” read 0.973.
`GGUGGGGAGACCCAUUUGUAAUCUAUAUGGCAGUUCCAUCUGGGUUUUAAGUUUAGAUUUCACCGUGUCUUAGUGCUUCAUUCUAUUGGUUUAUUGGAACAUGUAAUAAA`: “RBNS enrichment (R)” 0.492.
Under “RBNS enrichment (R)”, `UUUUGAGACUGGAGCCAACCCUUUUGGAGAGAGGACCUGCCCACCUUUGAGAUCAGCAGGGGGCUCGGAUCCAGCCCUAAGAGACUUGGGUGGACCCCCAUGAGUCAAUG` is recorded as 0.49.
`CCAUCAUUUGAUCAUAGCACUGUGAUUGCUUUUGAUGUGUGUCUCUAGUGGUGUGCUGUCUGUUGGCAUGCUUAAAGCACAUGUCCAUUAAAAUUCAUUUUGUUCCUUUU` — result for “RBNS enrichment (R)”: 0.964.
`AGAGCGAGAACCAUUUUGGAAACUGUAAUGUAACUUAUUUUUUCCUUUAACCUCGUCAUCAUUUUCUGUAGGGAAAAAAAAAAGAAAAAGAAAAAAUGAGAUUUUACAAG`: “RBNS enrichment (R)” 0.878.
Under “RBNS enrichment (R)”, `AACCAGCUGCUGGUGUAAUGUACAGUUAUAUUUGUCUAUAAAUGGAGCUGUUUAUGGCAAUUUAAUACCAUUCUCUUUGUAAAGUGAAUAAAUAUUCAUCUUUACCCAGU` is recorded as 0.447.
`GAAUUACCAAAUAUGAAGUAUGAAUGUCUUACCCACGGUGAGGCUCUGCCUCCUUCUCUCUGCCUGGUUCUUCAGAAGGCAGUGAAUGGGUCAUAACUGGGACUCCAUCU` — result for “RBNS enrichment (R)”: 0.263.
`AUAAAAGUAUUAGAGGCAGCGUUUCUCUGAUACAGAGAGGCCUGUCCACAAGAAGCAUGGGCACCCAGCCAAACUUGAACCUGGAAGGGAGGGUUCCCGGCCUGCAGGUG`: “RBNS enrichment (R)” 1.59.
Under “RBNS enrichment (R)”, `GAUGGAAAGGGAAUGUUCUGCUGGUUCUACCCUGUUUGUUGUGUCUUGCUAUACAGAAAAACCACAUUUCUUUUAUAUACUGUACGUGGGCAUAUCUUGUUGUUCAGUUU` is recorded as 3.61.
`CGUGGGGAGGAUAGAUGUGCUCUGGAACUUUCUGAAGGACCAGCAGCUUCAGGGACUCUUAGUCUGUCCUUCCCCACUUUUGGUCCCAACAUCCCUGGGAUGGUGUGCUG` — result for “RBNS enrichment (R)”: 0.373.
`AGGCCCCUGUGAUUUUCUCACAUAGGUGUCUUCUCAGUUCUGUCAAAUUCCUGAUGUUCUGCAAUACUCAGAAAAUUCUUUGAAUGGCAGACUUUCUUUUGUCUGUUUCU` — result for “RBNS enrichment (R)”: 0.26.
For `UGUUUUAUAUGUUAAAAACAAAAUAAAGACAUCAACCAUUUCACAUAUAUUCUACUACUAAAGGUAUCAAUGGAACAUGAAGACGAGUAUUUAGGCAGAAGCAAAACAGG`, “RBNS enrichment (R)” read 0.37.

Block 3
Target: Sal-like protein 4, full length isoform B (SALL4, Homo sapiens, UniProt Q9UJQ4-2, residues 1-616)
Method: universal PBM
Molecule type: double-stranded DNA, one strand shown
Medium: in vitro
Concentration: not given
Notes: 8-mer, flanks averaged, mean of replicates
Reading: higher = stronger binding
`CTACGGGA` gave an E-score of -0.161.
With `ATATGCAA` the E-score was 0.23.
The E-score of `AATTTAGT` is reported as 0.196.
The E-score of `CTGCTATA` is reported as 0.102.
For `CATACGAG`, the E-score was 0.0385.
For `CACCCGTG`, the E-score was -0.247.
`CGAGCATC` gave an E-score of -0.17.
For `AAACTCAA`, the E-score was 0.157.
For `AGTCTGTC`, the E-score was -0.0282.
With `CCTTCTGA` the E-score was 0.124.
With `AGACGGGC` the E-score was -0.269.
For `CCCCTGCG`, the E-score was -0.309.
For `AAACAGTG`, the E-score was 0.0559.
With `ACATGGTC` the E-score was 0.00307.
With `ACTCAACC` the E-score was 0.116.
`GGACTAAA` has an E-score of 0.0574.

Block 4
Target: Fragile X messenger ribonucleoprotein 1, C-terminal low-complexity region (Fmr1, Mus musculus, UniProt P35922)
Method: RNA Bind-n-Seq
Molecule type: RNA
Medium: in vitro
Concentration: 200 nM
Notes: whole 134-nt RNA, ends assumed
With: 150 mM KCl
Baseline: input library
Reading: higher = stronger binding
Constant ends, left off below: GGGAGUUCUACAGUCCGACGAUC … UGGAAUUCUCGGGUGUCAAGG
`UCCUGUGCUACACAUCGUAUGUACCGAAUCGGGAAAAAAGGGAAAAAAGGGAAAAAAGGGAAAGUAUUAUGUUACGCCGUUCGGAUCUGC` has a log2 enrichment of -0.317.
The log2 enrichment of `AGUCCUGUGCUACACAUCGUAUGUACCGAAUCGGGAAAGGGAAAAAAAGGGAAAGGGAAAGUAUUAUGUUACGCCGUUCGGAUCUGCACU` is reported as -0.0773.
The log2 enrichment of `CCUGUGCUACACAUCGUAUGUACCGAAUCGGGAAAAAAGGGGAAAAAAGGAAAAAAGGGGAAAGUAUUAUGUUACGCCGUUCGGAUCUGC` is reported as -0.41.
With `UCCUGUGCUACACAUCGUAUGUACCGAAUCGGGGUUUUUGGGGUUUUUGGGGUUUUUGGGAAAGUAUUAUGUUACGCCGUUCGGAUCUGC` the log2 enrichment was 0.492.
For `CACAGACAACACGCACCAAAACAGACACAGAGGGAAGGGGUUGGGAUGGGGACAGGGUGCACAGCAGGGCGGGGUAGGACCCCAGCCCCU`, the log2 enrichment was 1.27.
`UUAGGGAUGUGGCCAUAGAAUUCUCUCAGGAGGAGUGGAAAUGCCUGGACCCUGCUCAGAGGAUCUUAUACAGGGACGUGAUGUUGGAGA` gave a log2 enrichment of 0.599.
`AGUCCUGUGCUACACAUCGUAUGUACCGAAUCGGCCCCGGGCCCCGGGGCCCCGGGGAAAGUAUUAUGUUACGCCGUUCGGAUCUGCACU` has a log2 enrichment of -0.916.
For `UCCUGUGCUACACAUCGUAUGUACCGAAUCGGGUUUUUUGGUUUUUUGGGUUUUUUGGGAAAGUAUUAUGUUACGCCGUUCGGAUCUGCA`, the log2 enrichment was -0.149.
With `AAGUCCUGUGCUACACAUCGUAUGUACCGAAUCGGGUGGGUUUGGGAAAAAAAGGGAAAGUAUUAUGUUACGCCGUUCGGAUCUGCACUU` the log2 enrichment was 0.439.
For `CCUCAAGUCCUGUGCUACACAUCGUAUGUACCGAAUCGGUGGUUUGGUUUGGAAAGUAUUAUGUUACGCCGUUCGGAUCUGCACUUCCAG`, the log2 enrichment was -0.166.
For `UGGGAGGUGGAUUUUGUUUAUUUUUUUAGCUCAUUUCCAGGGGUGGGAUUUUUUUUUUAAUAUGUGUCAUGAAUAAAGUUGUUUUUGAAA`, the log2 enrichment was 0.335.
With `ACCAUGCAGGAAAGCAUCUUUGGGAAGUGGGGCAAGGGGGGGAUAGGGAGGGGGGUAACACUUUGGGAACAGGUGGUCCCAGGUCGUUUC` the log2 enrichment was 1.1.
`CCUCAAGUCCUGUGCUACACAUCGUAUGUACCGAAUCGGCGGGGCGGGCGGGGAAAGUAUUAUGUUACGCCGUUCGGAUCUGCACUUCCA` has a log2 enrichment of 1.06.
`UAACUUUAGAGGAGGAUCUGAUGGAUAUGGCAGUGGACGUGGAUUUGGGGAUGGCUAUAAUGGGUAUGGAGGAGGACCUCGAGGUGGCAA` has a log2 enrichment of -0.00891.

Block 5
Target: Histone acetyltransferase KAT6A, both winged helices, GST fusion (KAT6A, Homo sapiens, UniProt Q92794, residues 1-181)
Method: protein binding microarray
Molecule type: double-stranded DNA, one strand shown
Medium: in vitro
Concentration: not given
Notes: 8-mer, flanks averaged, mean of 2 arrays, mostly near background
Baseline: not given
Reading: higher = stronger binding
Construct (chain): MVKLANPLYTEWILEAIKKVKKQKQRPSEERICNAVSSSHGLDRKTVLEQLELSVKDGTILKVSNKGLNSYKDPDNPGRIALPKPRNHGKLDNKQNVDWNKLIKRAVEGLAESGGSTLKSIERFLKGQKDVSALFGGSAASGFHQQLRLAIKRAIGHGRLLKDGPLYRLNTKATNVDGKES
The E-score of `ACCGCCCG` is reported as 0.234.
The E-score of `CCGCTAAA` is reported as 0.233.
For `GACCCCCA`, the E-score was -0.246.
With `CCTCCTTC` the E-score was -0.076.
The E-score of `ACCTGGGC` is reported as -0.106.
`GACTAGTA` has an E-score of -0.0518.
`GGGGGTCA` gave an E-score of -0.166.
The E-score of `ATCGCGAA` is reported as 0.231.
With `CATTCGAA` the E-score was -0.118.
`CAACTCAA` gave an E-score of -0.18.
`CGAGCGCG` gave an E-score of 0.354.
The E-score of `AGTATGCG` is reported as 0.178.
With `ATCCTATA` the E-score was -0.138.
With `AGTCCCCC` the E-score was -0.0808.
With `AAAAACCT` the E-score was -0.276.
For `AAAGCCTG`, the E-score was -0.0694.
The E-score of `CCGCGGAA` is reported as 0.313.
The E-score of `ACGCTGCG` is reported as 0.185.
`ATAACCTG` has an E-score of -0.306.
`ATCTGACG` gave an E-score of 0.025.
`AATAACCC` gave an E-score of 0.0183.
For `AAGGAGCT`, the E-score was -0.108.
For `AATTTCTG`, the E-score was -0.137.
`AGCTAGAC` has an E-score of 0.0748.
`AGTCCATG` has an E-score of -0.0903.

Repeated from above (block 3):
`GGACTAAA` has an E-score of 0.0574.
For `AAACAGTG`, the E-score was 0.0559.
For `AGTCTGTC`, the E-score was -0.0282.
For `CATACGAG`, the E-score was 0.0385.
With `CCTTCTGA` the E-score was 0.124.
`CTACGGGA` gave an E-score of -0.161.
